Measurements of several laboratories.
Each numbered part is a random draw from the data of one study; scales do not carry over between parts.
Sequence of UniProt Q9UQM7 (whole entry, looked up): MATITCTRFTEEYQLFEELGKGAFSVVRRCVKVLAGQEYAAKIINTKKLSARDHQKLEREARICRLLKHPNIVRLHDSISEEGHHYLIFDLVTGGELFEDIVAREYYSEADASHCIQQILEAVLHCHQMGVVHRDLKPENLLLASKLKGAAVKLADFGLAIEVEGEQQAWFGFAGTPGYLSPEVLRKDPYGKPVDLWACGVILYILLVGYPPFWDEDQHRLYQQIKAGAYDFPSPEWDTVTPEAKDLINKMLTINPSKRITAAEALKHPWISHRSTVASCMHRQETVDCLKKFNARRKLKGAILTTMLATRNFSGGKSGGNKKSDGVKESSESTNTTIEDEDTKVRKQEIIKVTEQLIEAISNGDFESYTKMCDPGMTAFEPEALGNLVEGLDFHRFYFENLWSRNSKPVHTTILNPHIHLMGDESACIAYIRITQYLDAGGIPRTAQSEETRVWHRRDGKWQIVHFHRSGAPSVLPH
Sequence of UniProt Q9C098 (whole entry, looked up): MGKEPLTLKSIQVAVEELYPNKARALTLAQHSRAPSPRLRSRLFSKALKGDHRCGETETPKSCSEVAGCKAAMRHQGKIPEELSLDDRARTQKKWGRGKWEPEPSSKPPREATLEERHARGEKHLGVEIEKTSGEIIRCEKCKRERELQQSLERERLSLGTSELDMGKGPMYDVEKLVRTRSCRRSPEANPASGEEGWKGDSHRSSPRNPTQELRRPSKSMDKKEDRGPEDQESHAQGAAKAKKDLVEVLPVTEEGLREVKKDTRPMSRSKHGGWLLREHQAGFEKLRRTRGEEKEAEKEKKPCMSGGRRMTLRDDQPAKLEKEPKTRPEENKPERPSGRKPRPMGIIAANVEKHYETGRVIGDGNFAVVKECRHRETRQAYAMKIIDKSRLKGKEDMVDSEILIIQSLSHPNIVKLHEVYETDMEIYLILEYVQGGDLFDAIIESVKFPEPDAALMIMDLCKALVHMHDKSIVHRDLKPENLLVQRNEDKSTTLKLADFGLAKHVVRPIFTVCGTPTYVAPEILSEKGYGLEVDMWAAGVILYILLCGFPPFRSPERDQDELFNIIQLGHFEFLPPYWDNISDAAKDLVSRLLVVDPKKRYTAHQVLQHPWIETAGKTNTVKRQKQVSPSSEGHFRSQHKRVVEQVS
Sequence of UniProt Q00534 (whole entry, looked up): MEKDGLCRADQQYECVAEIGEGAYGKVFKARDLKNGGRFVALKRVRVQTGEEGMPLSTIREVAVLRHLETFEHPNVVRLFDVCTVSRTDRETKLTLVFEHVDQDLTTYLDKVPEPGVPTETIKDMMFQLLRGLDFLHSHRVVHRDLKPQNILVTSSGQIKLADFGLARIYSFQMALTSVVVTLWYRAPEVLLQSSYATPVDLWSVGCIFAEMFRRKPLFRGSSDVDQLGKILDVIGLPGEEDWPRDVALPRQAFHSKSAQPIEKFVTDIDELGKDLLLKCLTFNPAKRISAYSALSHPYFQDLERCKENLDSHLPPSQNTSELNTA
Sequence of UniProt O00750 (whole entry, looked up): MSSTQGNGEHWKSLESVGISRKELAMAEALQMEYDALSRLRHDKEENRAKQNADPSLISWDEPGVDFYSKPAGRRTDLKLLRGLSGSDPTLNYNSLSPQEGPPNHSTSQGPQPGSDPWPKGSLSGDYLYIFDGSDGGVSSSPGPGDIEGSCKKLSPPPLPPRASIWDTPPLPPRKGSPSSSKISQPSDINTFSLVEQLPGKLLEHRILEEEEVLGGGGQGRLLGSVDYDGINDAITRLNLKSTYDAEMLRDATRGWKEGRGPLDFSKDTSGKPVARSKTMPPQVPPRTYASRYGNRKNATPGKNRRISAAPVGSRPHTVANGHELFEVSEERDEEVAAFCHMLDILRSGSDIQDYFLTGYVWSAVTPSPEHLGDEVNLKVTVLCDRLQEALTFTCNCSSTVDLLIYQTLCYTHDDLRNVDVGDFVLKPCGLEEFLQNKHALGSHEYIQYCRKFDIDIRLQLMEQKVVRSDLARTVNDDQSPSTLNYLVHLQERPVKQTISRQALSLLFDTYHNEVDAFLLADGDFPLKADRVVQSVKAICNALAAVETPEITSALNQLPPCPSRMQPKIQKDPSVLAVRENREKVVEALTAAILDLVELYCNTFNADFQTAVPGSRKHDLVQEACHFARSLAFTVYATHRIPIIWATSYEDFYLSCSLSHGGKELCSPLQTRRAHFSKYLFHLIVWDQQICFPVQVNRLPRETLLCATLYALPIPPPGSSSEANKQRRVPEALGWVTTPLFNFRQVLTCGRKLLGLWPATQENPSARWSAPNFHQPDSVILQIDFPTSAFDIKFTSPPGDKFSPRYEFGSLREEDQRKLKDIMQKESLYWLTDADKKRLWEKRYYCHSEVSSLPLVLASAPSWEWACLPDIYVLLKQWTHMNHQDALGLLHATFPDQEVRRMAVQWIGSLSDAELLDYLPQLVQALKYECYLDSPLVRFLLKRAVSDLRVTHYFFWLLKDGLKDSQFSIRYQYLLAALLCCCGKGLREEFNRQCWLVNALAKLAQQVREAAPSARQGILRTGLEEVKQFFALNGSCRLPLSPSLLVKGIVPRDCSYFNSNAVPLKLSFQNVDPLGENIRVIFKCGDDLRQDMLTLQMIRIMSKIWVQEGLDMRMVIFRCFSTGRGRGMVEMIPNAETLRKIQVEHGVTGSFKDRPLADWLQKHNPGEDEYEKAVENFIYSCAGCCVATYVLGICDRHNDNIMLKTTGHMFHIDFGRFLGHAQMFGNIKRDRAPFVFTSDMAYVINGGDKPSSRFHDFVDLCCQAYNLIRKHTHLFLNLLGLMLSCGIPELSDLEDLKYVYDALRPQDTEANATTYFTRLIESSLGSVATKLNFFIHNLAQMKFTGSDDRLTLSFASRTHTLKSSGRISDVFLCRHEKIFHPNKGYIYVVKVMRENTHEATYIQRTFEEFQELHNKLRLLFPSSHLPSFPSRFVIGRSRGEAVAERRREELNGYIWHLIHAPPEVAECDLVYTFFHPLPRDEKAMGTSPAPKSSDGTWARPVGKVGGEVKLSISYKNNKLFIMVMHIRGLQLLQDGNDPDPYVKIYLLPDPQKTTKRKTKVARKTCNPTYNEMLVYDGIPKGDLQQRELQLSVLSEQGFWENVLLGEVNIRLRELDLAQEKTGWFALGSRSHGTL
Sequence of UniProt P22455 (whole entry, looked up): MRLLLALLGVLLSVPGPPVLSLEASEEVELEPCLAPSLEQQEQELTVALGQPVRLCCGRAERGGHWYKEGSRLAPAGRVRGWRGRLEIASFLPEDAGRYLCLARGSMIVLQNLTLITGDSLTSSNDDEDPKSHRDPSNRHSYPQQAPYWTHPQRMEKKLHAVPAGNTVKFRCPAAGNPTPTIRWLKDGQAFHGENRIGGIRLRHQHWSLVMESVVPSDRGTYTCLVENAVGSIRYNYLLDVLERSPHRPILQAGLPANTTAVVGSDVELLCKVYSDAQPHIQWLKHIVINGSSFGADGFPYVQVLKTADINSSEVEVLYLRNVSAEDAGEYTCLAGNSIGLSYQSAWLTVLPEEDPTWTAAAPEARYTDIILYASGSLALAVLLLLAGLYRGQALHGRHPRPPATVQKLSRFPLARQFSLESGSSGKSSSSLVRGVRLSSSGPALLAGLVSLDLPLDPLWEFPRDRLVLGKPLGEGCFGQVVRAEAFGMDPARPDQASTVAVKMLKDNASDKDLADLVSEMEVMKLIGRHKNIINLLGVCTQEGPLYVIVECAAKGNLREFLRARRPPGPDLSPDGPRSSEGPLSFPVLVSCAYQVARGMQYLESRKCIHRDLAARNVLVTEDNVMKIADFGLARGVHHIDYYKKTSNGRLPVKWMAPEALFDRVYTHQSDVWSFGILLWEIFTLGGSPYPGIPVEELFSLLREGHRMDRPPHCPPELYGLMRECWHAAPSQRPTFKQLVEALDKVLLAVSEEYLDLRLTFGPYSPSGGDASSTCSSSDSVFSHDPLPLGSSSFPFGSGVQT
Sequence of UniProt Q08345 (whole entry, looked up): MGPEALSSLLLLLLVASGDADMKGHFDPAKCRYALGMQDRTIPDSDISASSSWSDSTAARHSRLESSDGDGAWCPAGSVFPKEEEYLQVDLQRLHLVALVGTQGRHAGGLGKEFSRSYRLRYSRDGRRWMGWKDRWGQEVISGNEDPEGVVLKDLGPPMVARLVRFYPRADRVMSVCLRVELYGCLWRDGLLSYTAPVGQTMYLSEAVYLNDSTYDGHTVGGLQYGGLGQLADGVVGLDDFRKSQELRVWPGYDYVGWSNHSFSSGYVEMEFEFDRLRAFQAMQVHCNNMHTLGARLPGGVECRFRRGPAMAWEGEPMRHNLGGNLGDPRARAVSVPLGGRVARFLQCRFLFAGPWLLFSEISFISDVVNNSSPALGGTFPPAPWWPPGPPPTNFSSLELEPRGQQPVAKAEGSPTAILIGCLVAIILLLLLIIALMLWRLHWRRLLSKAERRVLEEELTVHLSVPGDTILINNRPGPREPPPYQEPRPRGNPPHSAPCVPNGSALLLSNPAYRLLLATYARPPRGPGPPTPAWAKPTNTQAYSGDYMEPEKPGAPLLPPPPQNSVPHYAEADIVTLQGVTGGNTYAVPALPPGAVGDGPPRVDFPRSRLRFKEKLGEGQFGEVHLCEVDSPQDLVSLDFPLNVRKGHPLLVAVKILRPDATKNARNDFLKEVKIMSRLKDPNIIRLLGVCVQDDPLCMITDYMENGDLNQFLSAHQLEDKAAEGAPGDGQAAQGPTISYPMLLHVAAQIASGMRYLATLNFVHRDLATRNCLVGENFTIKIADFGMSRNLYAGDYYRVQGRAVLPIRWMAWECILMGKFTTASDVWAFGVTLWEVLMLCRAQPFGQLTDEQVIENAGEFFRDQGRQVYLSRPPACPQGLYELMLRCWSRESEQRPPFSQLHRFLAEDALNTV

Block 1
SMILES: C[C@H](NC(=O)c1cnc2n1[C@](C)(Cc1ccc(C#N)cc1)C(=O)N2c1cc(Cl)c(F)c(Cl)c1)C(=O)NC1(c2ccccn2)CC1
Effect on: cell-free assay
Technique: competition with immobilised ligand
Concentration: 1 µM
Endpoint: remaining binding
DDR1 (Homo sapiens, UniProt Q08345): 100%
EPHB1 (Homo sapiens, UniProt P54762): 85%
CAMK2A (Homo sapiens, UniProt Q9UQM7): 96%
KIT (Homo sapiens, UniProt P10721, L576P): 83%
Tyrosine-protein kinase ABL1, non-phosphorylated (ABL1, Homo sapiens, UniProt P00519, H396P): 83%
TNK2 (Homo sapiens, UniProt Q07912): 94%
CDKL1 (Homo sapiens, UniProt Q00532): 73%
ROCK1 (Homo sapiens, UniProt Q13464): 100%
PLK2 (Homo sapiens, UniProt Q9NYY3): 75%
SGK3 (Homo sapiens, UniProt Q96BR1): 100%
CIT (Homo sapiens, UniProt O14578): 100%
PIK3C2B (Homo sapiens, UniProt O00750): 85%
NTRK2 (Homo sapiens, UniProt Q16620): 100%
TNIK (Homo sapiens, UniProt Q9UKE5): 100%
FGFR4 (Homo sapiens, UniProt P22455): 100%
NEK10 (Homo sapiens, UniProt Q6ZWH5): 100%
DCLK3 (Homo sapiens, UniProt Q9C098): 100%
EGFR (Homo sapiens, UniProt P00533, L861Q): 100%
TAOK1 (Homo sapiens, UniProt Q7L7X3): 86%
TNK1 (Homo sapiens, UniProt Q13470): 88%

Block 2
Target: Calcium/calmodulin-dependent protein kinase type II subunit alpha (CAMK2A, Homo sapiens, UniProt Q9UQM7)
Effect on: enzyme activity
Action: inhibitor
Concentration: 10 µM
Endpoint: inhibition
CCOC(=O)C1=C(C)NC(C)=C(C(=O)OC)C1c1cccc(Cl)c1Cl (centres unmarked): -12%
C[C@]12CC[C@@H]3c4ccc(O)cc4C[C@@H](CCCCCCCCC[S+]([O-])CCCC(F)(F)C(F)(F)F)[C@H]3[C@@H]1CC[C@@H]2O (some centres unmarked): 1%
C[C@@H](c1ncncc1F)[C@](O)(Cn1cncn1)c1ccc(F)cc1F: 6%
O=c1cc(-c2ccc(O)c(O)c2)oc2cc(O)cc(O)c12: 2%
COCC1=C(C(=O)OC(C)OC(=O)OC(C)C)N2C(=O)[C@@H](NC(=O)/C(=N\OC)c3csc(N)n3)[C@H]2SC1 (some centres unmarked): 0%
C=C(CC[C@@H](C(=O)O)[C@H]1[C@H](O)C[C@@]2(C)C3=CC[C@H]4C(C)(C)C(=O)CC[C@]4(C)C3=CC[C@]12C)C(C)C: 28%
C[C@H](CCC(=O)O)[C@H]1CC[C@H]2[C@@H]3CC[C@@H]4C[C@H](O)CC[C@]4(C)[C@H]3CC(=O)[C@]12C: -10%
N#Cc1ccc2[nH]cc(CCCCN3CCN(c4ccc5oc(C(=O)O)cc5c4)CC3)c2c1: 2%

Block 3
Target: panel of 300 human kinases
Concentration: 0.5 µM
Reading: higher = more selective
Endpoint: Gini score
CCN(CC)C(=O)c1ccc(Nc2nc(OCC3CCCCC3)c3[nH]cnc3n2)cc1: 0.56
O=C1c2ccccc2-c2n[nH]c3cccc1c23: 0.58
Fc1ccc(-c2nc3n(c2-c2ccncc2)CCS3)cc1: 0.75
CCc1[nH]c(-c2ccc(OC)cc2)nc1-c1ccncc1: 0.75
O=C1NC(=O)C(c2c[nH]c3ccccc23)=C1c1c[nH]c2ccccc12: 0.65
COc1cc2ncnc(Nc3cccc(Cl)c3)c2cc1OC: 0.6
CCCC(=O)Oc1ccc2[nH]c(C(=O)c3cc4ccccc4[nH]3)cc2c1: 0.59
NC(=O)c1ccc(N(C(N)=O)c2c(F)cccc2F)nc1-c1ccc(F)cc1F: 0.73

Block 4
SMILES: O=C(Nc1cnn(-c2csc(C(=O)NC3COC3)c2)c1)Nc1ccccc1Cl
Effect on: enzyme activity
Concentration: 5 µM
Relative to: untreated control
Endpoint: remaining activity
ERN1 (Homo sapiens, UniProt O75460): 93.9%
FGR (Homo sapiens, UniProt P09769): 89.2%
STK39 (Homo sapiens, UniProt Q9UEW8): 83.3%
FRK (Homo sapiens, UniProt P42685): 96.7%
Cyclin-dependent kinase 6, with cyclin D1 (CDK6, Homo sapiens, UniProt Q00534): 95.1%

Excerpt of the above (block 3):
O=C1NC(=O)C(c2c[nH]c3ccccc23)=C1c1c[nH]c2ccccc12: 0.65
CCCC(=O)Oc1ccc2[nH]c(C(=O)c3cc4ccccc4[nH]3)cc2c1: 0.59
Fc1ccc(-c2nc3n(c2-c2ccncc2)CCS3)cc1: 0.75
COc1cc2ncnc(Nc3cccc(Cl)c3)c2cc1OC: 0.6
